Measurements pooled from the literature.
Each line is one published result; not all experiments were run side by side. ± gives the spread as reported.

Amino acid sequences for entries named in this document (tags omitted). Residues count along the entry.
UniProt P45983, 1-384 isoform 3: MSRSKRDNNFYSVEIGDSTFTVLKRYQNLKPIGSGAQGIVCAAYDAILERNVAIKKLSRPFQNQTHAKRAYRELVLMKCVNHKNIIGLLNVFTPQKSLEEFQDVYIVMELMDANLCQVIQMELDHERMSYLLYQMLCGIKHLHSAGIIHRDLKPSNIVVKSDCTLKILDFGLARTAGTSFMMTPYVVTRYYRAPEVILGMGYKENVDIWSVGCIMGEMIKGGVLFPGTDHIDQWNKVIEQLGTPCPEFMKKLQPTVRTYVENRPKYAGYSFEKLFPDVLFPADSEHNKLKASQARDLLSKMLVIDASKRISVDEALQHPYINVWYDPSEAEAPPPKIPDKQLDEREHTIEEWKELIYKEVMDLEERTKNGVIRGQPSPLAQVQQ

SMILES	target or system	assay	test system	conditions	scale	quantity	value
C=CC(=O)N1CCC(c2cc(Nc3cc4n(n3)CCOC4)c3ncnn3c2)C1 (single isomer, unassigned)	TMD8 wild type	calcium flux, FLIPR	–	2 h preincubation, together with: anti-IgM	–	IC50	> 1 µM
COC(=O)[C@@H]1C(c2nc3cc(C)ccc3o2)=Cc2cc3c(cc2[C@H]1c1cc(OC)c(OC)c(OC)c1)OCO3	Leishmania infantum	–	promastigote, iRFP	–	–	EC50	16.3 ± 1.9 µM
CCOC(=O)C1=C(C)NC2=C(C(=O)CC(C)(C)C2)C1c1ccc(OCC(=O)NN=Cc2cccc(C=O)c2)cc1OCC(=O)NN=Cc1cccc(C=O)c1 (stereo not drawn)	Bacillus megaterium	–	DSM 32	concentration not given, 24 h	–	inhibition zone diameter	5.5 ± 0.1 mm
C[C@@H]1CN(C2CCC2)CC[C@H](O[C@H]2[C@@H](O)C[C@H](O[C@H]3[C@@H](O)C[C@H](O[C@H]4CC[C@@]5(C)[C@H](CC[C@@H]6[C@@H]5C[C@@H](O)[C@]5(C)[C@@H](C7=CC(=O)OC7)CC[C@]65O)C4)O[C@@H]3C)O[C@@H]2C)O1	–	–	rat hippocampal slices	10 µM, 24 min	–	baseline extracellular K+	3.81 ± 0.17 mM
COc1cc([C@@H]2c3cc4c(cc3[C@H](C=C(C)C)[C@H]3COC(=O)[C@H]23)OCO4)cc(OC)c1OC	Leishmania infantum	Alamar Blue	HepG2	–	baseline: CC50 HepG2 over EC50 amastigotes	selectivity index	4.5
C/C=C/Cn1c(Cc2cc(OC)c(OC)c(OC)c2)nc2c(N)ncnc21	Trap-1	binding, fluorescence polarization competition	–	–	–	Ki	28.6 ± 1.2 µM
CC(=NN=c1[nH]c2cc(F)c(F)cc2n1C)c1ccc(F)cn1	MDA-MB-231	cell migration area	–	50 nM, two days	baseline: untreated	inhibition	~50%
Cc1ncsc1-c1ccc([C@H](C)NC(=O)[C@@H]2C[C@@H](O)CN2C(=O)[C@@H](NC(=O)CCCCCCC(=O)N2CCN(C[C@]3(C)CCC(c4ccc(Cl)cc4)=C(CN4CCN(c5ccc(C(=O)NS(=O)(=O)c6ccc(N[C@H](CCN7CCOCC7)CSc7ccccc7)c(S(=O)(=O)C(F)(F)F)c6)cc5)CC4)C3)CC2)C(C)(C)C)cc1	–	item: Cdkn2a	naturally aged mice, fat	intraperitoneal, 5 mg/kg every 3 days	–	mRNA level	no effect
CCOc1ccccc1Nc1nnc(SCC(=O)Nc2cc(F)ccc2F)s1	PBMC-airway epithelium co-culture	–	–	5 µM, 48 h, together with: anti-CD3/CD28	–	TNF-α secretion	692 ± 21 pg/mL
CCC1NC(=O)C(CCCNC(=N)N)NC(=O)C(C)(NC(=O)C(C)C)CCCCNC(=O)C(c2ccccc2)NC1=O (stereo not drawn)	–	RT-qPCR, item: HoxA genes	MLL-AF9 leukaemia cells, mouse	20 µM	–	mRNA level	decreased
COc1cc([C@@H]2c3cc4c(cc3[C@](O)(C3(O)CCOCC3)[C@H]3COC(=O)[C@H]23)OCO4)cc(OC)c1OC	Leishmania infantum	iRFP fluorescence	mouse splenocytes infected, amastigote, iRFP, ex vivo splenic explant	48 h	–	EC50	5.9 ± 1.1 µM
Cc1cc(SCc2sc(-c3ccc(C#N)cc3Cl)nc2C)ccc1OCC(=O)O	HEK293T	–	–	18 h	–	CC50	> 100 µM
COC(=O)[C@@H]1C(C=Nc2cncnc2NC(C)=O)=Cc2cc3c(cc2[C@H]1c1cc(OC)c(OC)c(OC)c1)OCO3	Leishmania infantum	Alamar Blue	HepG2	–	baseline: CC50 HepG2 over EC50 amastigotes	selectivity index	0.1
Cc1cc(SCc2sc(-c3ccc(F)c(C(F)(F)F)c3)nc2C)ccc1OCC(=O)O	HEK293T	–	–	18 h	–	CC50	> 50 µM
COC(=O)[C@@]1(C)C=C(C(=O)Nc2cccc(C(=O)NC34CC(Nc5nccc(-c6cccnc6)n5)(C3)C4)c2)C(=O)CC1	MAPK8 (Homo sapiens, UniProt P45983)	kinase activity, inhibitor	–	0.006774 µM, unit not given, together with: 10 mM GSH	baseline: DMSO	remaining activity	0.692

For quick reference, copied from above:
SMILES	target or system	assay	test system	conditions	scale	quantity	value
COC(=O)[C@@H]1C(c2nc3cc(C)ccc3o2)=Cc2cc3c(cc2[C@H]1c1cc(OC)c(OC)c(OC)c1)OCO3	Leishmania infantum	–	promastigote, iRFP	–	–	EC50	16.3 ± 1.9 µM
CCOC(=O)C1=C(C)NC2=C(C(=O)CC(C)(C)C2)C1c1ccc(OCC(=O)NN=Cc2cccc(C=O)c2)cc1OCC(=O)NN=Cc1cccc(C=O)c1 (stereo not drawn)	Bacillus megaterium	–	DSM 32	concentration not given, 24 h	–	inhibition zone diameter	5.5 ± 0.1 mm
